Published values gathered from unrelated publications.
Protocols differ between the studies behind these lines.
Cell line: NCI-H1975

`O=C(NCc1cc(F)cc(F)c1)[C@@]1(O)CCN(c2ccc3[nH]ccc3c2)C1=O` has an IC50 of 16 µM (cell growth or viability).
With `C=CC(=O)Nc1cc(Nc2nccc(-c3c(-c4ccc(-c5ccccn5)cc4)n(C)c4ccccc34)n2)c(OC)cc1N(C)CCN(C)C` the inhibition was 56.8% (cell growth or viability, MTT; 0.5 µM, 72 h).
`C=CC(=O)N1CCc2ccc(-n3c(=O)ccc4cnc5ccc(-c6cnn(C)c6)cc5c43)cc21` has an IC50 of 1.69 µM (cell growth or viability).
`CC(C)c1ccc(N(C)c2ccc3c(c2)OCC[C@H]3CNc2cnccc2C(=O)O)cc1` gave an IC50 of 0.0348 µM (cell growth or viability, ATP luminescence; 7 days).
`CCOc1cncc(-c2ccc(NC(=O)C3(c4ccnc(NS(=O)(=O)C5CC5)n4)CCOCC3)nc2)n1` has an IC50 of 0.181 µM (cell growth or viability, ATP luminescence; 72 h).
`CCCCn1cnc2ccc(-c3ccc(NC(=O)CC)nc3)cc2c1=O` gave an IC50 of 2.35 µM (cell growth or viability, CCK-8; 72 h).
`CNS(=O)(=O)Nc1nccc(Cc2c(C)c3ccc(Oc4ncccc4F)cc3oc2=O)c1F` has an IC50 of > 1 µM (cell viability; 7 days).
For `C=CC(=O)Nc1cc(Nc2nccc(-c3c(-c4cccc5ccccc45)n(C)c4ccccc34)n2)c(OC)cc1N(C)CCN(C)C`, the inhibition was 67.8% (cell growth or viability, MTT; 0.5 µM, 72 h).

For quick reference, copied from above:
`CCCCn1cnc2ccc(-c3ccc(NC(=O)CC)nc3)cc2c1=O` gave an IC50 of 2.35 µM (cell growth or viability, CCK-8; 72 h).
